Measurements from different studies.
Parts stem from different laboratories: compare values within a part only.

Series 1
Target: RNA binding protein fox-1 homolog 2, RRM domain, GST-SBP tag (RBFOX2, Homo sapiens, UniProt O43251-10, residues 100-194)
Method: RNA Bind-n-Seq
Form: RNA
Sample: in vitro
Tested at: 365 nM
Notes: natural RNA segment, single round, ends assumed
Relative to: no-protein control
Reading: higher = stronger binding
Quantity: RBNS enrichment (R)
Target sequence (chain): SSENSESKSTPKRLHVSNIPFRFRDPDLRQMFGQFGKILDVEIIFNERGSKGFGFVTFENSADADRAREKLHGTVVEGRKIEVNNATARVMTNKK
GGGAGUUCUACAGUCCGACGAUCAAGCUACUACAGACUAAAUUUAUGUUUCACCUAGAAUAUAAAACUGUUAGACAUUGGGUUCUCCUUUACGUUGCCCUAUUGCUUUAAUAACAUCAAGAUCUCUCCUAGUUUGGAAUUCUCGGGUGCCAA: 0.294
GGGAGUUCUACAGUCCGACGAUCGAAGGUGUGAAAUUGUAAAUAUUUUUAUCUAAGUAAAUGUUAAGCAGUUGUUUUAAAAAUACUUAAUAAAAUAAGCUUUUUUCCUGUGGAAGAGAAAUGGUCUCCUUGGUUGGAAUUCUCGGGUGCCAA: 0.921
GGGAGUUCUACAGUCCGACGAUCUAUUUAUAACUUUUAAGAACAUGAAGUAUUAGCUUAAUAUAGUUUUCUCUGUUGGUUUCUUCCUCAAGUUUGCAUUGUUUUCUUUUGUUAAAAUUAGAGAUUUCUUUUUAUGGAAUUCUCGGGUGCCAA: 1.82
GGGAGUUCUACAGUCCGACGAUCUUAAGUAAAUUUUUCGUUUUACUUUUUCCACAGCAGCUAACGUGUAGGGAGACAUUAAACCCACACCAAAUCAUGAGGGGCUGAGGACCCCCAAUCUUCUUCUCUAGGUCUGGAAUUCUCGGGUGCCAA: 0.872
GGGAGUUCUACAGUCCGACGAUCCUUGCCAGUGGUGUGCCGGGCGCGGGUCCUGUCUGGCGGCGGCCUGUCGUCUCCAGGUGCUAACUCCUGCCACCGCGCGGUGCUCACCCACGUCUGUUCGCGCGCUCGCCUGGAAUUCUCGGGUGCCAA: 0.29
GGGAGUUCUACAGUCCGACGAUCUCCAGCCAUUACAGAGUGAAGGUGCAACCCCAUGUGGGAGCCCCACUAGUGACCACUCCCUGAGAGGCCGCAAUCAGGUGGGAAUGAAAAGGCCUCCUCCAGCGGGGCAGUGGAAUUCUCGGGUGCCAA: 0.37
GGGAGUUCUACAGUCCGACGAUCUGUCUGAGGAACCUGUGUGUCCAGAGCCACAUGAAAUGUGAAUGAUUGUUGGCAAUAUAAUCUUGAGAGGCUGGUGGGACUUGGGGAAGGAGCAGGGACAGACAUCUGUUUGGAAUUCUCGGGUGCCAA: 0.659
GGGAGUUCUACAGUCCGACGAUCCAAGCAUCUGAAACGUGCCAGCCUCUGCGGUUCCCGUUAUCAUCUUAGGGGGCAGAAGCCAAUGGGUGGAAAGAACAGUAGAGGUUCUGUAUAGCAUGGAAGUCAACUGCUGGAAUUCUCGGGUGCCAA: 0.592
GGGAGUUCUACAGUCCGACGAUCGUGCUGGCAAGGGAUUGGGUUUGUGUGGGUGUCUCUAGCCUGCAGAGUGCAGUGAGUGAGAGUCCUUGGGAGCGCGGCGCUGCCUGUAGCUGUGCCUGGGGAUGCACGUGUGGAAUUCUCGGGUGCCAA: 12.8
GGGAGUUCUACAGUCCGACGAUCAAGAUGAAUCUGUUUGUAUGUAUCCUUGUCAAAUAUAUUCUAUAAUGAAAUAAAAUCUGAAAAGUGGAUUUCUUAUUGACCUAUAUUCAUGAAAGCAUAUAAAUUAAAAUUGGAAUUCUCGGGUGCCAA: 0.465

Series 2
Target: Interferon regulatory factor 5, full length, phosphomimetic (IRF5, Homo sapiens, UniProt Q13568-2, residues 1-514, S451D/S453D/S456D/S462D)
Method: protein-binding microarray
Form: double-stranded DNA, one strand shown
Sample: in vitro
Tested at: 940 nM top
Notes: 60-bp whole probe
Added: salmon DNA 0.4 mg/ml
Relative to: random background probes
Reading: higher = stronger binding
Quantity: fitted relative affinity
All sequences stand within: GCCTAGCAC … GTCTTGATTCGCTTGACGCTGCTG
GTCGGTTTCGGTTTCGGGACGTGCTAG: 17.6 z-score
TCATATTTGTCCCTATTACTGTGCTAG: 1.05 z-score
TTAGATCTCAGTCTCGATTCGTGCTAG: 2.75 z-score
TCACATCTCCAGTAGCCTACTGTGCTA: 0.675 z-score
CTTTTTTTCTTTTATTAGTGGTGCTAG: 2.28 z-score
TTACATATCAGTCTCGATTAGTGCTAG: 3.62 z-score
TACGGACTGGGTTTCGGGACGTGCTAG: 2.38 z-score
GACGAACTGGTGTTTCGAGACGTGCTA: 0.254 z-score
TTAGGTATCCTAGTGCTTTAGTGCTAG: -0.317 z-score
TTAGGACTGGACCTTCGGTTAGTGCTA: -0.658 z-score
GACGGTTTCCTTCTCCTGAGGTGCTAG: 1.21 z-score

Series 3
Target: Histone acetyltransferase KAT6A, both winged helices, GST fusion (KAT6A, Homo sapiens, UniProt Q92794, residues 1-181)
Method: protein binding microarray
Form: double-stranded DNA, one strand shown
Sample: in vitro
Tested at: not given
Notes: 8-mer, flanks averaged, mean of 2 arrays, mostly near background
Relative to: not given
Reading: higher = stronger binding
Quantity: E-score
Construct (chain): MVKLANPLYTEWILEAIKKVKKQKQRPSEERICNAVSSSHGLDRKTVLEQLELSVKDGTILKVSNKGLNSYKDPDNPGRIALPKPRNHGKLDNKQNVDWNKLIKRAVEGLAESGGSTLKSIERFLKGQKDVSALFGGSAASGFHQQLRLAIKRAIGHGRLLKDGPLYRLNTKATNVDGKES
AGGACGTC: -0.0982
GATCGCGC: 0.31
GGCAACTA: -0.0739
CTTGTTGC: -0.107
AAGCCGCT: 0.273
GCTTCGAA: -0.13
GCGAATAC: 0.105
ACTACGTG: 0.0151
ATGATGCA: -0.149
GATTGTAC: -0.0657
AGGGGGAA: -0.273
GAACTGTC: -0.054
CCACTTTC: -0.105

Single results of other studies
PhoQ, residues 284 288 289 292 302 303 SNSSNI
fold induction (PhoP, residues 12 14 15 18 19 GQALL (Escherichia coli, UniProt P23836); Sort-seq, measured: YFP reporter; E. coli; PhoQ-PhoP variant library, added: 10 µM Mg2+; relative to: high Mg2+ state, higher = stronger signaling): 3.66
